Measurements pooled from the literature.
A part holds a random share of what one study measured. “And” joins repeats or separate records; there may be more than shown.

Set 1
Cell line: HaCaT
Concentration: 100 µM
Time: 36 h
Structure (SMILES) | viability
CC(S)C(=O)NCC(=O)O (centres unmarked) | 100%
CC(C(=O)O)c1ccc2c(c1)CC(=O)c1ccccc1S2 (centres unmarked) | 88.7%
CO[C@H]1C[C@@H]2CC[C@@H](C)[C@@](O)(O2)C(=O)C(=O)N2CCCC[C@H]2C(=O)O[C@H]([C@H](C)C[C@@H]2CC[C@@H](O)[C@H](OC)C2)CC(=O)[C@H](C)/C=C(\C)[C@@H](O)[C@@H](OC)C(=O)[C@H](C)C[C@H](C)/C=C/C=C/C=C/1C | 5.92%

Set 2
SMILES: CC(C)n1cnc(-c2ccc(F)cc2)c1-c1ncc(C(=O)Nc2ccc(N3CCN(C)CC3)cc2)[nH]1
Technique: phase 2a trial
Species: idiopathic pulmonary fibrosis patients
dose | setting | patients with cholecystitis
60 mg once daily | adverse event grade 2 | 0%
dose not given | adverse event grade 5, all dose arms pooled | 0%
30 mg once daily | adverse event grade 4 | 0%

Set 3
Structure (SMILES): COc1cc(C(=O)N2CCC(N3CCN(C)CC3)CC2)ccc1Nc1ncc2c(n1)N(C)c1ccccc1C(=O)N2C
tested on | assay | test system | setting | inhibition [%]
NDR2 (mouse) | probe labelling, KiNativ, measured: DTGHIYAMkILR peptide, LYS1 site | brain tissue lysate (mouse) | 0.1 µM, added: ADP acyl-phosphate probe | -0.5
CaMK1b (mouse) | probe labelling, KiNativ, measured: Lys1 site peptide | brain tissue lysate (mouse) | 1 µM, added: ADP acyl-phosphate probe | -5
human PBMC | probe labeling, inhibitor, KiNativ profiling, measured: DMkAANVLITR | cell lysate | concentration not given, LYS2 site, added: ATP acyl-phosphate probe | 13.5
LCK human | KiNativ profiling | human PBMC | 1 µM, activation loop site, added: ATP acyl phosphate probe | 9.6
PI4KA (mouse) | probe labelling, KiNativ, measured: SGTPMQSAAkAPYLAK peptide, ATP site | brain tissue lysate (mouse) | 1 µM, added: ATP acyl-phosphate probe | -8.7
mouse CaMK1α | probe labelling, KiNativ ADP probe | mouse brain lysate | 1 µM, LYS1 site LVAIkCIAK | -2.1
AXL mouse | KiNativ profiling | mouse brain lysate | 1 µM, activation loop site, added: ADP acyl phosphate probe | -3.5
NEK7 human | KiNativ profiling | human PBMC | concentration not given, activation loop site, added: ATP acyl phosphate probe | 0.4

Single results of other studies
Concentration: 10 µM
HTR3A: 5-hydroxytryptamine receptor 3A (HTR3A, Homo sapiens, UniProt P46098)
UniProt P46098, sequence (whole entry, looked up): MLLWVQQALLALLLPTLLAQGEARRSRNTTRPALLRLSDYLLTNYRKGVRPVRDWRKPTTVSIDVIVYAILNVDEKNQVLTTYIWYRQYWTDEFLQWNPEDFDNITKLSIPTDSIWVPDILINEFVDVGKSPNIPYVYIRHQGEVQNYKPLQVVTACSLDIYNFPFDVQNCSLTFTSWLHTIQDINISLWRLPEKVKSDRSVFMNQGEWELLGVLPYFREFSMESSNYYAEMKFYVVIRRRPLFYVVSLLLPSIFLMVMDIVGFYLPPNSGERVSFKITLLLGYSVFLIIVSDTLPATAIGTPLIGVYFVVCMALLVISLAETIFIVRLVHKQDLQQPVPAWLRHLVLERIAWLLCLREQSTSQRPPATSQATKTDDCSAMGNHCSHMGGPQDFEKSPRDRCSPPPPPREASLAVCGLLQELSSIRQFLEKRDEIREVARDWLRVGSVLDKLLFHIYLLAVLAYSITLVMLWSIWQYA
SMILES | tested on | observed | technique | time | quantity | result
CN([C@@H]1CCc2c(CC(=O)O)c3ccccc3n2C1)S(=O)(=O)c1ccc(F)cc1 | HTR3A | ligand displacement |  |  | inhibition | -3.86%
Cn1cncc1[C@@](O)(COc1ccc(C#N)cc1-c1ccc(OC(F)(F)F)cc1)c1ccc(C#N)cc1 | HEK293T |  | high-content imaging | 0 h | membrane-permeable cells | 0.74% and 0.62%
COc1cc(-c2cn(C3CCc4ccccc4N(CC(F)(F)F)C3=O)nn2)ccc1-n1ccc(C)n1 (centres unmarked) | HTR3A | binding | radioligand binding |  | inhibition | -9.73%

A few entries again (set 1):
Structure (SMILES) | viability
CC(S)C(=O)NCC(=O)O (centres unmarked) | 100%
